Experimental data gathered from unrelated publications.
A part holds a random share of what one study measured. Changes are numbered by the printed parent chain.
UniProt P50406, sequence (whole entry, looked up): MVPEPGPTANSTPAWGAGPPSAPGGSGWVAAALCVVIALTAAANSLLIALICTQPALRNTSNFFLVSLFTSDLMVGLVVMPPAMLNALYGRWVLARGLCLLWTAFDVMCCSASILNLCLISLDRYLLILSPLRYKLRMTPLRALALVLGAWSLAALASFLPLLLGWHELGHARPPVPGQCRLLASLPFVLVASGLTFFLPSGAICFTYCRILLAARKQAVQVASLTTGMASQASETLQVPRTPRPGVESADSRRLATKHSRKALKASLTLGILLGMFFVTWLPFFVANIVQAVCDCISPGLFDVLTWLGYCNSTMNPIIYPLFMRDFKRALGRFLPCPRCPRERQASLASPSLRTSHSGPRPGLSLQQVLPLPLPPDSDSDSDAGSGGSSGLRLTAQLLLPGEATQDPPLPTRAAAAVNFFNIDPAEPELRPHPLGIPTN

Sample 1 — target: CCND3, cyclin fold, Cln2 fusion (human); technique: yeast growth competition, sequencing; matrix: yeast; notes: weak parent motif; reference: not given; reading: higher = stronger binding; starting sequence: viral docking peptide; YKVKRRLVFGADD
Change | normalised enrichment score
V3P | 0.294
F9N | 0.163
G10E | 0.275
F9E | 0.3
R6M | 0.375
V3T | 0.25
R6Y | 0.365

Other studies, line by line
ADRB1: Beta-1 adrenergic receptor (ADRB1, Homo sapiens, UniProt P08588)
UniProt P08588, sequence (whole entry, looked up): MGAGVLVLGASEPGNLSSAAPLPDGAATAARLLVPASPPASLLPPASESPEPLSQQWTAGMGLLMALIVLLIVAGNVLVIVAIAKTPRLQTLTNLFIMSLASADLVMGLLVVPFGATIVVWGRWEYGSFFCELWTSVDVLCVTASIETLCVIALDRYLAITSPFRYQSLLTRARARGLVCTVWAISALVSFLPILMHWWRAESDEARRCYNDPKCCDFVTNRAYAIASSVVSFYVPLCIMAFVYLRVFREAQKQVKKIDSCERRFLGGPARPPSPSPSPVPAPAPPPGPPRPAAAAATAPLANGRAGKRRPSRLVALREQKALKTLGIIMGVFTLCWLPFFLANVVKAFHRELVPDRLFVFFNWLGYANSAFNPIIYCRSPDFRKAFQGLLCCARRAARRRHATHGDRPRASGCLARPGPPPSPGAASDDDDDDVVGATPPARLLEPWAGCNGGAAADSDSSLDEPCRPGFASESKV
HLA class I histocompatibility antigen, B alpha chain allele B*39:01: HLA class I histocompatibility antigen, B alpha chain, allele B*39:01 (Homo sapiens, UniProt P01889)
Molecule | target or system | test | test system | conditions | scale | measurement | result
CC(N)[C@H](O)c1ccc(O)c(O)c1 (some centres unmarked) | ADRB1 | agonist |  |  |  | Emax | 103%
Cc1c(N2CCNCC2)nc2ccc(Br)cc2c1C(=O)NC[C@H](CCC(=O)O)c1ccccc1Cl | HTR6 (Homo sapiens, UniProt P50406) | ligand displacement |  | 10 µM |  | inhibition | 1.76%
RYSIFFDY | HLA class I histocompatibility antigen, B alpha chain allele B*39:01 | peptide-MHC binding | peptide | concentration not given |  | binding | inactive
CC(C)c1c(CN(C)C(C)Cc2ccccc2)n(C)n(-c2ccccc2)c1=O (centres unmarked) | mouse MPNST tumor cells | high-content nuclear imaging, measured: cell number |  | 10 µM, 12 h, mean of 2 replicates | reference: plate mean, higher = more cells | nuclei count | 2.09 z-score
FHLRSRFAF | HLA class I histocompatibility antigen, B alpha chain allele B*39:01 | peptide-MHC binding | peptide | concentration not given |  | binding | active
CC(=O)NCCc1c[nH]c2ccccc12 | mouse MPNST tumor cells | high-content nuclear imaging, measured: cell number |  | 10 µM, 12 h, mean of 2 replicates | reference: plate mean, higher = more cells | nuclei count | 2.2 z-score
Nc1c(Cl)cc(C(O)CNC2CCC(O)CC2)cc1Cl (centres unmarked) | ADRB1 | agonist |  |  |  | Emax | 95.7%

Some of these lines once more (sample 1):
Change | normalised enrichment score
G10E | 0.275
